Experimental data collected from several papers.
Each numbered part is a random draw from the data of one study; scales do not carry over between parts.

Block 1
Target: Interferon regulatory factor 7, full length, phosphomimetic (IRF7, Homo sapiens, UniProt Q92985, residues 1-503, S101K/S471D/S472D/S475D/S476D/S477D/S483D/S484D/S487D)
Method: protein-binding microarray
Form: double-stranded DNA, one strand shown
Matrix: in vitro
Concentration: 250 nM
Notes: 60-bp whole probe
Together with: salmon DNA 0.4 mg/ml
Baseline: random background probes
Direction: higher = stronger binding
Quantity: log fluorescence
Constant ends, left off below: GCCTAGCAC … GTCTTGATTCGCTTGACGCTGCTG
Construct (chain): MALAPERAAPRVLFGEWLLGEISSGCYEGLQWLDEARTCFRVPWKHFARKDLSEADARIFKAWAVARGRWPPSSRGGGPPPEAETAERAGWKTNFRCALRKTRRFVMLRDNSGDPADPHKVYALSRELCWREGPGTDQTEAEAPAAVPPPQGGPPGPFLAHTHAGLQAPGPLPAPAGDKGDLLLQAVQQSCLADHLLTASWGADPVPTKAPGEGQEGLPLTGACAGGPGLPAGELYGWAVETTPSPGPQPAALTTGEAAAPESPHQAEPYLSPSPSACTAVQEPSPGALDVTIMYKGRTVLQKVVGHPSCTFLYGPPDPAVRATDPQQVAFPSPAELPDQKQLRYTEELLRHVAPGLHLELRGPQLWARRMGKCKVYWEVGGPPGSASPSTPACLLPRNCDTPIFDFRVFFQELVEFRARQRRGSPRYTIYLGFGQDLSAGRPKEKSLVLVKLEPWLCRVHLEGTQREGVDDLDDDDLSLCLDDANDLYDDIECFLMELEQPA
TTAGGAGTGGGGTATCGGTTAGTGCTA: -0.0781 z-score
GACAACTGATATCAAAGGGAGTGCTAG: -0.1 z-score
TTAGATTTCGGGTTTCGATTAGTGCTA: 7.9 z-score
GGATGTCTGTAGCTCATTCTGTGCTAG: -0.456 z-score
AACGGTATCGGTTTCGGGACGTGCTAG: 7.24 z-score
TCAGATTACATATATGTTACTGTGCTA: 0.423 z-score
GCTAGTATGTTCCTTATTTAAGTGCTA: 0.403 z-score
ATCTTCATGAAATTTTAATAAGTGCTA: -0.0152 z-score
TTAGATTCCAGCTTCGATTAGTGCTAG: 1.35 z-score
ATTGTCTTCCCCATCTTGTTGTGCTAG: 1.29 z-score
TCACTTTGCTTTCTCCCACTGTGCTAG: 1.48 z-score
GACGATATCGTGTATCGAGACGTGCTA: -0.324 z-score
TTAGGACTGGACACTGGGGTAGTGCTA: -0.583 z-score
TCAACTCTCTAATTTTGAGAGTGCTAG: 0.0675 z-score
TTTGGTTTCCTTATCCTTTAGTGCTAG: 3.73 z-score
GCCGATTTCGGGTATCGAGACGTGCTA: 1.47 z-score
GGTTTTCTGGTTCCCATTCCGTGCTAG: 5.28 z-score
TTAGATTTCACTTCCGATTAGTGCTAG: 1.4 z-score

Block 2
Target: Histone acetyltransferase KAT6A, both winged helices, GST fusion (KAT6A, Homo sapiens, UniProt Q92794, residues 1-181)
Method: protein binding microarray
Form: double-stranded DNA, one strand shown
Matrix: in vitro
Concentration: not given
Notes: 8-mer, flanks averaged, mean of 2 arrays, mostly near background
Baseline: not given
Direction: higher = stronger binding
Quantity: E-score
Residues (chain): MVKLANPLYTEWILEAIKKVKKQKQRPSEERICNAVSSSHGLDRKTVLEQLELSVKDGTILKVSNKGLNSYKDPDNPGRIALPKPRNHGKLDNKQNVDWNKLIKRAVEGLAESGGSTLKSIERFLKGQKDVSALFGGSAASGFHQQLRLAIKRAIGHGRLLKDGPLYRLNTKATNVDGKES
AAATCCAC: -0.217
GGTCCCGA: 0.0694
AACTTAAC: 0.0271
CGGTCGTA: 0.19
ACAAGACC: 0.00146
TATGAGCA: -0.123
AGCGGAGC: 0.12
GAGACTGC: 0.0791
TAGCTGGA: -0.201
GAGTGAGA: -0.0939
GTTATAAA: -0.0974
ACAGAAAT: -0.183

Block 3
Target: Sal-like protein 4, full length isoform A (SALL4, Homo sapiens, UniProt Q9UJQ4, residues 1-1053)
UniProt Q9UJQ4, sequence (whole entry, looked up): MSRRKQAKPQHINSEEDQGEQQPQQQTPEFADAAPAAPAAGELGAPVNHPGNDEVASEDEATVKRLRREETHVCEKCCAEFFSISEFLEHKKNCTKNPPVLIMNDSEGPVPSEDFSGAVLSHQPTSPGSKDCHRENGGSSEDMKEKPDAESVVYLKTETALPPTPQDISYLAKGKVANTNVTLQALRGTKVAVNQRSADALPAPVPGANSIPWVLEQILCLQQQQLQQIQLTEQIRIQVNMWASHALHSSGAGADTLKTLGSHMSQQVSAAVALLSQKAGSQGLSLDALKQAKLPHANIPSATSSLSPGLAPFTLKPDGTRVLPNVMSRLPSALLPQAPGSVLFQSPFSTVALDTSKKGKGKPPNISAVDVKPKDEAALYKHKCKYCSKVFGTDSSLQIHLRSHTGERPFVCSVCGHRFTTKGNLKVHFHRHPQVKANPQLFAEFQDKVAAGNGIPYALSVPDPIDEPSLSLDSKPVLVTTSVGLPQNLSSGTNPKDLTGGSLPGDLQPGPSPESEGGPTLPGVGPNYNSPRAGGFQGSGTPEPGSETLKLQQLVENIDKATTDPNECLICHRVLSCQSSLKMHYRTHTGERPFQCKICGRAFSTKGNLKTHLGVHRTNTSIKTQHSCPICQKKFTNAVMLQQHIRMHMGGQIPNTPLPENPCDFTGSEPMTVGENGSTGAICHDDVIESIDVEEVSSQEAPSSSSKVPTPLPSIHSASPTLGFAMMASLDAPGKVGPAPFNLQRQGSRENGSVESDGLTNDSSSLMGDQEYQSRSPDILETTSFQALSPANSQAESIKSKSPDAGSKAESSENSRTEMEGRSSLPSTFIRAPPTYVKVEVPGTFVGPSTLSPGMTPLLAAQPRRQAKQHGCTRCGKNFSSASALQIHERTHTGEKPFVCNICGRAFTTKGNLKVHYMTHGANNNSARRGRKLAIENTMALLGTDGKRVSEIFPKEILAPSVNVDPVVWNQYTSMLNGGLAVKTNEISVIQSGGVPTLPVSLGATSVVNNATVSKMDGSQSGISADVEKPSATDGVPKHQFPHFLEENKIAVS
Method: universal PBM
Form: double-stranded DNA, one strand shown
Matrix: in vitro
Concentration: 600 nM
Notes: 8-mer, flanks averaged, mean of replicates
Direction: higher = stronger binding
Quantity: E-score
AAGGACCG: -0.178
CTCCCTTC: -0.303
ATCTAAAT: 0.3
AGGGGTGG: -0.276
GCGGAAAC: -0.146
ATCGCCTG: -0.313
GGGTCGAA: -0.188
ACAAACGA: 0.0613
ATGCCAAG: 0.0365
AAAACGGA: 0.0391
CTAGCAGC: -0.17
AACCCTGC: -0.196
CGGCTACG: -0.374
ACGCCACC: -0.312
AAGACTTA: 0.171
CCAGCTCA: -0.128
CTGTAGAA: 0.153
ACCATCTA: -0.0319

Single results of other studies
PhoQ, residues 284 288 289 292 302 303 SNSSNI — fold induction (PhoP, residues 12 14 15 18 19 TQAIL (Escherichia coli, UniProt P23836); Sort-seq, item: YFP reporter; E. coli; PhoQ-PhoP variant library, together with: 10 µM Mg2+; baseline: high Mg2+ state, higher = stronger signaling): 13.8

Repeated from above (block 1):
TCAGATTACATATATGTTACTGTGCTA: 0.423 z-score
TTAGGAGTGGGGTATCGGTTAGTGCTA: -0.0781 z-score
TTAGATTTCACTTCCGATTAGTGCTAG: 1.4 z-score
GCCGATTTCGGGTATCGAGACGTGCTA: 1.47 z-score
GCTAGTATGTTCCTTATTTAAGTGCTA: 0.403 z-score
TTTGGTTTCCTTATCCTTTAGTGCTAG: 3.73 z-score
GGTTTTCTGGTTCCCATTCCGTGCTAG: 5.28 z-score
GACAACTGATATCAAAGGGAGTGCTAG: -0.1 z-score
